# Measured values gathered from unrelated publications.
# Parts stem from different laboratories: compare values within a part only. Values joined by “and” are separate records of one study, mostly repeats; a detail may differ.
# Chain of UniProt P50750 (whole entry, looked up): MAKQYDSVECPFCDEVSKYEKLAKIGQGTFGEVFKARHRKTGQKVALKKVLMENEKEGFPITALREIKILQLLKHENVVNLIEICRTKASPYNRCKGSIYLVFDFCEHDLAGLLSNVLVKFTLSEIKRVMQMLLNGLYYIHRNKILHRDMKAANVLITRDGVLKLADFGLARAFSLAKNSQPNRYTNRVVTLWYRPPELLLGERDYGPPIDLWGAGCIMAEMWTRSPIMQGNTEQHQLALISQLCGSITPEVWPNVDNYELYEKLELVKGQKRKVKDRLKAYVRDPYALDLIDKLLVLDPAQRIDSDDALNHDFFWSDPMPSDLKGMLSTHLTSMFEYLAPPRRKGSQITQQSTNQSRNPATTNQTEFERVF
# Chain of UniProt P07948 (whole entry, looked up): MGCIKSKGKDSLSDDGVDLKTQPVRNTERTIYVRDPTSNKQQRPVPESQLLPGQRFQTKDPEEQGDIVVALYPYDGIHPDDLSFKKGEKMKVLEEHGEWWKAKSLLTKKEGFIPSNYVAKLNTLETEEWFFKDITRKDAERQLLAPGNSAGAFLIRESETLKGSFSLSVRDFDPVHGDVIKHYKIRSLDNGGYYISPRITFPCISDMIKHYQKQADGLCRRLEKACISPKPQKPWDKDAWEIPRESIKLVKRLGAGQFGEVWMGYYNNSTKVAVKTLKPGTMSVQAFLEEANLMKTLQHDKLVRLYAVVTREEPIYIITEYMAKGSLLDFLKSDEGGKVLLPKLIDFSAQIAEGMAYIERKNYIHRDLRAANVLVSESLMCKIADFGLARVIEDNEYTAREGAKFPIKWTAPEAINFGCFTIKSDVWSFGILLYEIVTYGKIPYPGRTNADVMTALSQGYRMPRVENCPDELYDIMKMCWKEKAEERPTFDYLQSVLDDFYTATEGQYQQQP
# Chain of UniProt Q12851 (whole entry, looked up): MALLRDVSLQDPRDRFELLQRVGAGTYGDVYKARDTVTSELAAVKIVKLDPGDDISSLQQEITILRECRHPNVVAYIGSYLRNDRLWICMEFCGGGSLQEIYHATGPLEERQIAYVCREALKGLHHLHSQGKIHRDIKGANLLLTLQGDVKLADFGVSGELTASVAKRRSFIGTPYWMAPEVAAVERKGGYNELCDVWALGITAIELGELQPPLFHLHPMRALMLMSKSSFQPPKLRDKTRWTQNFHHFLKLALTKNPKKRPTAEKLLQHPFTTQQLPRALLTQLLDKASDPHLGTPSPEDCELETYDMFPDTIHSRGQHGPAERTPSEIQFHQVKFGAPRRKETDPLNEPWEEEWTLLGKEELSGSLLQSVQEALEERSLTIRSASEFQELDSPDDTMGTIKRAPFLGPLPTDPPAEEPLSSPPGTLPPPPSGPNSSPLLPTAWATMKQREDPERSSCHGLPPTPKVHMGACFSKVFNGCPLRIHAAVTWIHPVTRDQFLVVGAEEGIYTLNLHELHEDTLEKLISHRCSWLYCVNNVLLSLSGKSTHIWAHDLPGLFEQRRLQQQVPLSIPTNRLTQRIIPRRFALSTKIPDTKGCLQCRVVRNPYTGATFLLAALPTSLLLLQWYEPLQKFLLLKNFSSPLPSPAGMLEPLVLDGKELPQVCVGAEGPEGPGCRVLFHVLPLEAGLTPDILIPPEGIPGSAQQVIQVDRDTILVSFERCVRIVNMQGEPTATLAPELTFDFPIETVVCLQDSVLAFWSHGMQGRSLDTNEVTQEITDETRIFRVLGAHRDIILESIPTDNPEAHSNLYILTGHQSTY
# Chain of UniProt Q02779 (whole entry, looked up): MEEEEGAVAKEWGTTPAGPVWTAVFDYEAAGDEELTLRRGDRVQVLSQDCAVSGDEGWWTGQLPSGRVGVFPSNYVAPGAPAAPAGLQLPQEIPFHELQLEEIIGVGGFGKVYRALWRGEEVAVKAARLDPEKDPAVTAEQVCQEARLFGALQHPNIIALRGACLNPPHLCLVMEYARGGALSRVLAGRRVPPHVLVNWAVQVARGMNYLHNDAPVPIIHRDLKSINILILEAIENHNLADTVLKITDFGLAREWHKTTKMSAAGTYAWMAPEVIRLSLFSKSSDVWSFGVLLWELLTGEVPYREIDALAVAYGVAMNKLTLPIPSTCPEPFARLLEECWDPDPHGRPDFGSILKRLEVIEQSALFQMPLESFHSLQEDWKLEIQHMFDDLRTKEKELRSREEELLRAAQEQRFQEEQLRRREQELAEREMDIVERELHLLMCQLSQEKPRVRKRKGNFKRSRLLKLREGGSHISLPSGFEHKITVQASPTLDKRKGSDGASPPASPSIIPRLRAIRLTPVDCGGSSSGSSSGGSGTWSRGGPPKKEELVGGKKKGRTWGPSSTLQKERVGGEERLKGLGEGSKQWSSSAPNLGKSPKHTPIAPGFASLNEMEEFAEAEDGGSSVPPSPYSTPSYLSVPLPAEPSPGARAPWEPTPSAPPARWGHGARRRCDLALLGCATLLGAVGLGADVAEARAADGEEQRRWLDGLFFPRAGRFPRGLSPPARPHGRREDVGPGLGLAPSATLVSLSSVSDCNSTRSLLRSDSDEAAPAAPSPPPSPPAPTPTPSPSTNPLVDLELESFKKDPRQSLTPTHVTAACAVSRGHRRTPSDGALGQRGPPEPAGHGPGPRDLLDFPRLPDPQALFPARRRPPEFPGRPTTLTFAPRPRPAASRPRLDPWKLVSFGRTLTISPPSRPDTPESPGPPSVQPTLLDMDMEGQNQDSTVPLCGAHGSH
# Chain of UniProt P54756 (whole entry, looked up): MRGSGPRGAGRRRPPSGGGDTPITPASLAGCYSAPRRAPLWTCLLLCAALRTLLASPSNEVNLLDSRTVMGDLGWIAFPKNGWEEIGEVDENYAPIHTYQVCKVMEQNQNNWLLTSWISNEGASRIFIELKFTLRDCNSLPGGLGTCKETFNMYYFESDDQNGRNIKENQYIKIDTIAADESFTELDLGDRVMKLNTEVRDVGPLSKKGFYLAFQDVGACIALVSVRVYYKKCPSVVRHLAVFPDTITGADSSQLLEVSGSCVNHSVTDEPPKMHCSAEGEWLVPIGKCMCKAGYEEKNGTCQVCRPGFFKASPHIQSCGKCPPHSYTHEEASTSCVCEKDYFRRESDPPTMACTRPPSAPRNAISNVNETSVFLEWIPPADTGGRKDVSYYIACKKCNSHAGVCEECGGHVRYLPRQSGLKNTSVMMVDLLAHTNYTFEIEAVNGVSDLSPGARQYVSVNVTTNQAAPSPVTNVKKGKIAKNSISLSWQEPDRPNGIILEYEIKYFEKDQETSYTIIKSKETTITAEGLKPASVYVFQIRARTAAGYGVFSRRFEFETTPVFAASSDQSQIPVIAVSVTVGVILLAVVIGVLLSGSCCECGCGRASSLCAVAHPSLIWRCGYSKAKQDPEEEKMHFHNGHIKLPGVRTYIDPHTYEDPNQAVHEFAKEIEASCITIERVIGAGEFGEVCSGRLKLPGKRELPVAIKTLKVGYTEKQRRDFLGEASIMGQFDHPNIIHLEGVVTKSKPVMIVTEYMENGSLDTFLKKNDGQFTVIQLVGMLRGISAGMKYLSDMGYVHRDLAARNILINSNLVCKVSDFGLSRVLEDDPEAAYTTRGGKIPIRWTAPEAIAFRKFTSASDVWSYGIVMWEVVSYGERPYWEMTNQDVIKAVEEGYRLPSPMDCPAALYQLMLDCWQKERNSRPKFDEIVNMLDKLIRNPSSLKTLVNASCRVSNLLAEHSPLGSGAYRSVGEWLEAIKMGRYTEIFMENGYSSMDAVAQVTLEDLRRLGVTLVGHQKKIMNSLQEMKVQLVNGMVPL
# Chain of UniProt Q05655 (whole entry, looked up): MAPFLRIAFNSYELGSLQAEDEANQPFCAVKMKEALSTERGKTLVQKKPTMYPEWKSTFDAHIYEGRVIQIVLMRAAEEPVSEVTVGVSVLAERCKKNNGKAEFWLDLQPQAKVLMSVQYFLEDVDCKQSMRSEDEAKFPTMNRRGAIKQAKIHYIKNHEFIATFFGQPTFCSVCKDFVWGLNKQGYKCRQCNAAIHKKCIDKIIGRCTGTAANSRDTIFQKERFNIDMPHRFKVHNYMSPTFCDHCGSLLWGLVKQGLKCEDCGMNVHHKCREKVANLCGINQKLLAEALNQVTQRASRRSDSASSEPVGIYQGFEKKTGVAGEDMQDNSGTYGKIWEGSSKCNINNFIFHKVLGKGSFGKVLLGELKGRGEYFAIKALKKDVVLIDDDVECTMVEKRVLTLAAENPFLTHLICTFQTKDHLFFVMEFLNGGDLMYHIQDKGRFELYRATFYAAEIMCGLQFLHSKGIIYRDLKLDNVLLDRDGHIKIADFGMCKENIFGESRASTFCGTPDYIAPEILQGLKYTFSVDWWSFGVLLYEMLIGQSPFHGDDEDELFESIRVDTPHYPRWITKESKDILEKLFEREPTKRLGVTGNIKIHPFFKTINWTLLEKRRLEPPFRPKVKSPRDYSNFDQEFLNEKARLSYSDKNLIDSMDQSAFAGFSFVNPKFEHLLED
# Chain of UniProt P53778 (whole entry, looked up): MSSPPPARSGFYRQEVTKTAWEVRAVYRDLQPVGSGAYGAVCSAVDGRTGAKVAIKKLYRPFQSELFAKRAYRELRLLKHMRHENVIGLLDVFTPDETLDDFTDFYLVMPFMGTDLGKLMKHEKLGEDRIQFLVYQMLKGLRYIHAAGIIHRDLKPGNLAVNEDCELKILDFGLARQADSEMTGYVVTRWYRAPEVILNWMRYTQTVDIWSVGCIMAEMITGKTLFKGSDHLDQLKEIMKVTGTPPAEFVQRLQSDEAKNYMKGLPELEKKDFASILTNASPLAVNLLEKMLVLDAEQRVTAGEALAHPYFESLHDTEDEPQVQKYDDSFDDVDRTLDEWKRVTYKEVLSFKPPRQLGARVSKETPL

# Set 1
# Cell line: mouse MPNST tumor cells
# Method: high-content nuclear imaging
# Refers to: cell number
# Concentration: 10 µM
# Time: 12 h
# Notes: mean of 2 replicates
# Reference: plate mean
# Reading: higher = more cells
Structure (SMILES),nuclei count
CCN(CC)CCN[C@@H](C(=O)OCCC(C)C)c1ccccc1,1.12 z-score
Cc1nc2cnc3ccc(C#Cc4cccnc4)cc3c2n1-c1ccc(C(C)(C)C#N)cc1,-1.56 z-score
CC(C)c1ccccc1S(=O)(=O)c1cc(N)c2ncccc2c1[N+](=O)[O-],-2.36 z-score
CN(C)CCC(c1ccc(Br)cc1)c1ccccn1 (centres unmarked),1.39 z-score
Cn1cnc2ncn(Cc3nc(CCc4ccc(Cl)cc4)no3)c(=O)c21,1.79 z-score
O=S(=O)(N[C@H](CO)C(C(F)(F)F)C(F)(F)F)c1ccc(Cl)s1,-0.674 z-score
FC(F)(F)c1ccccc1-c1cc(C(F)(F)F)c2nc(C3=NOC4(CCCCC4)C3)[nH]c2c1,2.4 z-score
Cc1nc2n(c(=O)c1CCN1CCC(c3noc4cc(F)ccc34)CC1)CCCC2O (centres unmarked),3.89 z-score
COc1cc(C(=O)O)ccc1NC(=O)[C@@H]1N[C@@H](CC(C)(C)C)[C@](C#N)(c2ccc(Cl)cc2F)[C@H]1c1cccc(Cl)c1F,-5.26 z-score
COC(=O)c1ccccc1NC(=O)c1ccc(F)cc1,1.03 z-score
O=C(Nc1ncc([N+](=O)[O-])s1)c1ccccc1O,-0.818 z-score
CCCCCCCC/C=C\CCCCCCCC(=O)NCc1ccc(O)c(OC)c1,2.17 z-score
CN1C(=O)OC(C)(C)C1=O,1.04 z-score and -0.729 z-score
Cc1nnc(NS(=O)(=O)c2ccc(N)cc2)s1,0.772 z-score

# Set 2
# Structure (SMILES): CCCCc1c(-c2ccc(OC)cc2)[nH]c2nccnc12
# Effect on: enzyme activity
# Mode: inhibitor
# Concentration: 0.5 µM
# Reference: control
target,remaining activity
"Cyclin-dependent kinase 9, with cyclin T1 (CDK9, Homo sapiens, UniProt P50750)",55.2%
"MAPK12 (Homo sapiens, UniProt P53778)",102%
"WNK2 (Homo sapiens, UniProt Q9Y3S1)",112%
"MAP4K2 (Homo sapiens, UniProt Q12851)",65.1%
"KIT (Homo sapiens, UniProt P10721)",82.9%
"BTK (Homo sapiens, UniProt Q06187)",64.7%
"LRRK2 (Homo sapiens, UniProt Q5S007)",83%
"PRKG1 (Homo sapiens, UniProt Q13976)",92.7%
"AKT3 (Homo sapiens, UniProt Q9Y243)",102%
"LYN (Homo sapiens, UniProt P07948)",85.5%
"MKNK2 (Homo sapiens, UniProt Q9HBH9)",99.3%
"MAP3K10 (Homo sapiens, UniProt Q02779)",82.7%
"PRKCD (Homo sapiens, UniProt Q05655)",92.8%
"CSNK2A1 (Homo sapiens, UniProt P68400)",97.8%
"CHEK1 (Homo sapiens, UniProt O14757)",93.1%
"CSNK1A1 (Homo sapiens, UniProt P48729)",92.9%
"NEK4 (Homo sapiens, UniProt P51957)",81.3%
"MAPK13 (Homo sapiens, UniProt O15264)",99.1%
"IRAK4 (Homo sapiens, UniProt Q9NWZ3)",163%
"EPHA5 (Homo sapiens, UniProt P54756)",91.6%
"MAP2K6 (Homo sapiens, UniProt P52564)",96%
"PRKCI (Homo sapiens, UniProt P41743)",72.8%

# Set 3
# Cell line: HaCaT
# Concentration: 100 µM
# Time: 18 h
Structure (SMILES),viability [%]
O=C(O)c1cccc(-c2noc(-c3ccccc3F)n2)c1,93.2
COC1=C(OC)C(=O)C(C/C=C(\C)CC/C=C(\C)CC/C=C(\C)CC/C=C(\C)CC/C=C(\C)CC/C=C(\C)CC/C=C(\C)CC/C=C(\C)CC/C=C(\C)CCC=C(C)C)=C(C)C1=O,112
CCCCN(CCCC)CC(O)c1cc(Cl)cc2c1-c1ccc(Cl)cc1/C2=C/c1ccc(Cl)cc1 (centres unmarked),17.4
O=C(C1CCCCC1)N1CC(=O)N2CCc3ccccc3C2C1 (centres unmarked),96.7
CN(Cc1cc(Br)cc(Br)c1N)C1CCCCC1,25.5
C#CCN[C@@H]1CCc2ccccc21,115
COc1ccc(-c2coc3cc(O)ccc3c2=O)cc1,84.9
O=C(O)CCc1nc2ccccc2[nH]1,114
N=C(N)c1ccc2cc(OC(=O)c3ccc(N=C(N)N)cc3)ccc2c1,118
Cc1cc(O)c2c(c1)C(=O)c1cccc(O)c1C2=O,107
N#CC(c1ccc(Cl)cc1)c1c(Cl)cc(-n2ncc(=O)[nH]c2=O)cc1Cl (centres unmarked),52.4
O=C(O)[C@@H](S)[C@@H](S)C(=O)O,108
Cc1ccc(/C(=C\CN2CCCC2)c2ccccn2)cc1,114
COC(=O)c1ccc2c(c1)NC(=O)/C2=C(\Nc1ccc(N(C)C(=O)CN2CCN(C)CC2)cc1)c1ccccc1,89
Cc1ccccc1N1C(=O)c2cc(S(N)(=O)=O)c(Cl)cc2NC1C (centres unmarked),98.8

# Mixed results
SMILES,tested on,assay,conditions,endpoint,value
O=C([C@H]1C[C@H](O)CN1c1ccc(Cl)cc1)N1CC2COCC(C1)N2Cc1ccc(Cl)cc1,"HTR3A (Homo sapiens, UniProt P46098)","binding, radioligand binding",10 µM,inhibition,-7.03%
Cc1cc(C)c(-n2ccn3nc(-c4cccnc4)cc23)cc1NC(=O)c1cc(C#N)cc(S(F)(F)(F)(F)F)c1,"U2OS, HEK-293T and MRC9",,"1- or 10-fold concentration, 24 h",cell health,no effect

# For quick reference, copied from above (set 2):
target,remaining activity
"MAPK13 (Homo sapiens, UniProt O15264)",99.1%
"IRAK4 (Homo sapiens, UniProt Q9NWZ3)",163%
"MKNK2 (Homo sapiens, UniProt Q9HBH9)",99.3%
"LYN (Homo sapiens, UniProt P07948)",85.5%
"WNK2 (Homo sapiens, UniProt Q9Y3S1)",112%
"Cyclin-dependent kinase 9, with cyclin T1 (CDK9, Homo sapiens, UniProt P50750)",55.2%
"MAPK12 (Homo sapiens, UniProt P53778)",102%
